Results of several laboratories.
Parts stem from different laboratories: compare values within a part only.
Chain of UniProt O60331 (whole entry, looked up): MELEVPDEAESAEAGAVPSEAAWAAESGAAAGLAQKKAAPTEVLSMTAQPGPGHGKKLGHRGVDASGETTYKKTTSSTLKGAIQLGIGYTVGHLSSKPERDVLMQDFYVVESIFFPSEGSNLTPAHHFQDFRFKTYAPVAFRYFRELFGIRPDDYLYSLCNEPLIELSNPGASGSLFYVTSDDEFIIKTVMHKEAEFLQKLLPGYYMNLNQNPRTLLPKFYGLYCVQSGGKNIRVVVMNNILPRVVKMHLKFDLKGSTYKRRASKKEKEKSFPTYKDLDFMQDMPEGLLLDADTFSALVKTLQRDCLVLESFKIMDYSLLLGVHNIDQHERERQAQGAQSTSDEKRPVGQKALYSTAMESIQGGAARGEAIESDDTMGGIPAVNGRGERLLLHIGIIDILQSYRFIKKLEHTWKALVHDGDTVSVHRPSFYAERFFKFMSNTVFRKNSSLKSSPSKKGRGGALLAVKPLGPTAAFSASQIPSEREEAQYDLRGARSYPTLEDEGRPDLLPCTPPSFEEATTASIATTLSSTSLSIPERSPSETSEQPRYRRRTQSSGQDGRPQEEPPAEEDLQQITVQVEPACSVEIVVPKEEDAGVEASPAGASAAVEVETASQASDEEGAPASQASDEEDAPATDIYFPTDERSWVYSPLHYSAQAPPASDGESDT
Chain of UniProt P00519 (whole entry, unmodified, looked up): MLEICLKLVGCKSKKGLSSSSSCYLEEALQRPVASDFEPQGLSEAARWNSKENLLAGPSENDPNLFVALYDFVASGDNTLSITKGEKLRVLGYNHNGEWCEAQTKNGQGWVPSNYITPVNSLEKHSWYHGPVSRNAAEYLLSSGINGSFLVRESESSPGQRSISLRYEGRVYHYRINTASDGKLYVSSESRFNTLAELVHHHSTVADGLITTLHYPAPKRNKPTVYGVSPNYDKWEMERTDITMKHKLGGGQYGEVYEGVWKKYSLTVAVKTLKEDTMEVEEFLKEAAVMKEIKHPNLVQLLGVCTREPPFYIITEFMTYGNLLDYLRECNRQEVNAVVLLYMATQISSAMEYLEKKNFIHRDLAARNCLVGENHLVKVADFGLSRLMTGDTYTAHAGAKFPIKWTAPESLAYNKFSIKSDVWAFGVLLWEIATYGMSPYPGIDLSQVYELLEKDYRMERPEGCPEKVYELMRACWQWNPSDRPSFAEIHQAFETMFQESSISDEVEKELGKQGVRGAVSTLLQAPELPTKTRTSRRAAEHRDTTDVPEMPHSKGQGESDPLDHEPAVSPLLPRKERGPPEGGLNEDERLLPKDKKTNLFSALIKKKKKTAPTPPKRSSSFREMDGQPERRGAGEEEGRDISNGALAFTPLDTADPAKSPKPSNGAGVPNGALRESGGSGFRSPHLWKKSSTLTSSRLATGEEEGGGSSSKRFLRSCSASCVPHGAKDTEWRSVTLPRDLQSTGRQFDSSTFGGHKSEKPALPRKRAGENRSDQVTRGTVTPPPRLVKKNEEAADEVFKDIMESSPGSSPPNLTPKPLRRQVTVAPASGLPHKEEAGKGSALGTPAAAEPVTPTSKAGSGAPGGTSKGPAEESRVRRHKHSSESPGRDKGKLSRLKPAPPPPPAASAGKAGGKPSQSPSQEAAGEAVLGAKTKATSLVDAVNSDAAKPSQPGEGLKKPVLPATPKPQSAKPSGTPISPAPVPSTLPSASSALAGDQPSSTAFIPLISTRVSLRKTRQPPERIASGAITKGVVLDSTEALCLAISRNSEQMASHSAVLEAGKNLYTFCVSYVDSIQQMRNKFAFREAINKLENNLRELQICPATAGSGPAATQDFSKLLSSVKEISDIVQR
Chain of UniProt O00506 (whole entry, looked up): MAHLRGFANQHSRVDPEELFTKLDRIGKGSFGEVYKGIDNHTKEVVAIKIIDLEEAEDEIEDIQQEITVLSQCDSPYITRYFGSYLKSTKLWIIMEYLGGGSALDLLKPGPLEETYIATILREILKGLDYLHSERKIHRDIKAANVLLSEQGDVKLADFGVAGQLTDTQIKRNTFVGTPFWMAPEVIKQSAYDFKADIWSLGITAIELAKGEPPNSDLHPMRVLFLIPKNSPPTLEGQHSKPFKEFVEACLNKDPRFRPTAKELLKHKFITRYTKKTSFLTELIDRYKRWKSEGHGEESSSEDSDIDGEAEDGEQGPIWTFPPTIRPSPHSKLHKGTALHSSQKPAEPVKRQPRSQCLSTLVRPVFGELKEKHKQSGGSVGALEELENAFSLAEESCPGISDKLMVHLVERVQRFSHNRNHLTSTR
Chain of UniProt Q13188 (whole entry, looked up): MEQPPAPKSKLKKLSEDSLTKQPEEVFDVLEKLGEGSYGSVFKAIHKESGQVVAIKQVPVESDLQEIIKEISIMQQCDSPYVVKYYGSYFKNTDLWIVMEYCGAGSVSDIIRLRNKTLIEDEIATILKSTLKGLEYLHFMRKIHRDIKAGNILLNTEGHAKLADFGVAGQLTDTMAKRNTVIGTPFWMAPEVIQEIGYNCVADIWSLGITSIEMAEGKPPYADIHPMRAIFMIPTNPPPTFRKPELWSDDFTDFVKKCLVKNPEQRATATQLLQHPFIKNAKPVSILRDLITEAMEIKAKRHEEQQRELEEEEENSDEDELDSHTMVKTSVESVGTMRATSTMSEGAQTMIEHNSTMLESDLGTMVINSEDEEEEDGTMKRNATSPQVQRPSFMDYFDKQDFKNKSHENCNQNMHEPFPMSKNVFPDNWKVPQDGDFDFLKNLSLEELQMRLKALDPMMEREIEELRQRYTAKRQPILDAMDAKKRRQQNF
Chain of UniProt Q92630 (whole entry, looked up): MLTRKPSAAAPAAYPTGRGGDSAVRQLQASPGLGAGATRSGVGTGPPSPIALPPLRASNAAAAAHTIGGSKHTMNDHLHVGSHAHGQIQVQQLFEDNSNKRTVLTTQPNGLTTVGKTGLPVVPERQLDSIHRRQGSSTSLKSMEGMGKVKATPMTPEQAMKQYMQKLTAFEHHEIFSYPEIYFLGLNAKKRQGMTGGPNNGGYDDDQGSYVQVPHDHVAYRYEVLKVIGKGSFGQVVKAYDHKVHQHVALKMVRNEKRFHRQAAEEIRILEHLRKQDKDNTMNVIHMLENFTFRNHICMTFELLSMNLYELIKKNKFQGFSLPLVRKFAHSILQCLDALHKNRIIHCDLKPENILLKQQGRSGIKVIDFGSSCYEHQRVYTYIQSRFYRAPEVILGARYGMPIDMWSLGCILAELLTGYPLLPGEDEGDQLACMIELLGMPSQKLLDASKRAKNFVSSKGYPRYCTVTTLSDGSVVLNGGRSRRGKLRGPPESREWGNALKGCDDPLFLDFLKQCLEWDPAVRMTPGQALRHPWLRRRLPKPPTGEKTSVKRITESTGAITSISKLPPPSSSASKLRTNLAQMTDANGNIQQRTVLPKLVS
Chain of UniProt P29597 (whole entry, looked up): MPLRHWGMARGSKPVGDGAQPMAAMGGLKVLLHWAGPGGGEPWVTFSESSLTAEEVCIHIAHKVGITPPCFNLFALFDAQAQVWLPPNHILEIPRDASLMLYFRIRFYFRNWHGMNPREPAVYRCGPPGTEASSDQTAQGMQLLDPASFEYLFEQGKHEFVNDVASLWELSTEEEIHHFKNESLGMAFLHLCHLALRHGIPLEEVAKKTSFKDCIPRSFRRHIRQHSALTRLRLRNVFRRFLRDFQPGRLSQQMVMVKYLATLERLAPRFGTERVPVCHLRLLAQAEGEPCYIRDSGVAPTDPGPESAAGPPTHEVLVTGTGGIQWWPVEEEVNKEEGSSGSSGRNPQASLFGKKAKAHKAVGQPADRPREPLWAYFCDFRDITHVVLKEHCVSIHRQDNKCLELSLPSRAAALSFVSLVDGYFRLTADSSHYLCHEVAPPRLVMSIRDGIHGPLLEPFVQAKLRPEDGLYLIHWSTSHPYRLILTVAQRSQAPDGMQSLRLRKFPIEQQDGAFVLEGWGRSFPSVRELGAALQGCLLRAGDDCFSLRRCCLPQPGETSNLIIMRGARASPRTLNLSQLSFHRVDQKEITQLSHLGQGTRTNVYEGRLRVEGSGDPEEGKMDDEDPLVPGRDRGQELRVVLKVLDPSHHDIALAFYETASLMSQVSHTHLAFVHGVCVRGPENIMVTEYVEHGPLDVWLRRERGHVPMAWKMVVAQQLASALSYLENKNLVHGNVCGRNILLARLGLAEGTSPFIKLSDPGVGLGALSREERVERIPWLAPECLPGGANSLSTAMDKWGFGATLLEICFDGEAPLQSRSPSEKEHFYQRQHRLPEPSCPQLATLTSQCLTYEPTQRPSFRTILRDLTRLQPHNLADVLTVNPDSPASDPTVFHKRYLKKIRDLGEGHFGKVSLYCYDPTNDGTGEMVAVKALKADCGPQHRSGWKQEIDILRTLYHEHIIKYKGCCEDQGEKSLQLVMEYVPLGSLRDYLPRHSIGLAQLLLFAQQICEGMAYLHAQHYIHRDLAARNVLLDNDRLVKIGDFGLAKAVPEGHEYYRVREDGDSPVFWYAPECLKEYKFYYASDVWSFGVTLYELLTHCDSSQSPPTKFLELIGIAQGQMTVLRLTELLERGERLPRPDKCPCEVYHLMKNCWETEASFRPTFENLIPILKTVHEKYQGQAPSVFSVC
Chain of UniProt P09769 (whole entry, looked up): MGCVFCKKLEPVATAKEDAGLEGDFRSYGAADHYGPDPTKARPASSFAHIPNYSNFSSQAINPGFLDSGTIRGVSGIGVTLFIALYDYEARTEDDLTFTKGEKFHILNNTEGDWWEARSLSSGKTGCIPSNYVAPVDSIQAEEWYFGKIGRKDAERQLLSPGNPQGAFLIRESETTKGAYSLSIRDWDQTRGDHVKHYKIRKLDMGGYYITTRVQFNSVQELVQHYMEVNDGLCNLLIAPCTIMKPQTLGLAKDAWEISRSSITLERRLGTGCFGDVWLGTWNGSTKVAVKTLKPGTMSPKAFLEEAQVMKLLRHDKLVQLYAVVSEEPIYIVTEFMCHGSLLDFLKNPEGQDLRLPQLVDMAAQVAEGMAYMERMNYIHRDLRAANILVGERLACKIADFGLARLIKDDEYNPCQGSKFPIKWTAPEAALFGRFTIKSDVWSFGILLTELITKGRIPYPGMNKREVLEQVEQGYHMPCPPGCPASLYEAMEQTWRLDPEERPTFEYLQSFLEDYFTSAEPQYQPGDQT

Sample 1
SMILES: CN1CCN(C(=O)c2ccc(NC(=O)Nc3ccc(N(C)c4ccnc(Nc5ccc(CS(C)(=O)=O)cc5)n4)cc3)cc2)CC1
Concentration: 1 µM
Quantity: remaining binding
EGFR (Homo sapiens, UniProt P00533, L858R/T790M); competitive binding panel; reference: vehicle: 55%
ABL1 (Homo sapiens, UniProt P00519, M351T); competitive binding panel; reference: vehicle: 20%
TXK (Homo sapiens, UniProt P42681); competitive binding panel; reference: vehicle: 15%
STK25 (Homo sapiens, UniProt O00506); competitive binding panel, item: YSK1; reference: vehicle: 83%
PIP5K1C (Homo sapiens, UniProt O60331); competitive binding panel; reference: vehicle: 97%
MINK1 (Homo sapiens, UniProt Q8N4C8); competitive binding; MINK: 18%
ABL1 (Homo sapiens, UniProt P00519, E255K); competitive binding panel; reference: vehicle: 38%
WNK4 (Homo sapiens, UniProt Q96J92); competitive binding panel; reference: vehicle: 100%

Sample 2
SMILES: Nc1cnc(N2CCc3cc(S(=O)(=O)Nc4c(F)cc(Cl)cc4F)cc(N4CCCC4=O)c32)nc1
Observed: cell-free assay
Method: competition with immobilised ligand
Concentration: 1 µM
Quantity: remaining binding
ULK1 (Homo sapiens, UniProt O75385): 95%
PLK4 (Homo sapiens, UniProt O00444): 100%
Insulin receptor (INSR, Homo sapiens, UniProt P06213): 89%
NUAK1 (Homo sapiens, UniProt O60285): 100%
PIP5K1C (Homo sapiens, UniProt O60331): 75%
DYRK2 (Homo sapiens, UniProt Q92630): 89%
FGR (Homo sapiens, UniProt P09769): 100%

Sample 3
Compound: C=CC(=O)N1CCC[C@@H](n2nc(-c3ccc(Oc4ccccc4)cc3)c3c(N)ncnc32)C1
Action: inhibitor
Concentration: 1 µM
Quantity: inhibition
Non-receptor tyrosine-protein kinase TYK2, JH1 domain (TYK2, Homo sapiens, UniProt P29597): 4%
DDR1 (Homo sapiens, UniProt Q08345): 26%
STK3 (Homo sapiens, UniProt Q13188); enzyme activity: 5%
PAK1 (Homo sapiens, UniProt Q13153); enzyme activity: 2%
SBK1 (Homo sapiens, UniProt Q52WX2); enzyme activity: 40%

Sample 4
Target: Dual specificity tyrosine-phosphorylation-regulated kinase 4 (DYRK4, Homo sapiens, UniProt Q9NR20)
Observed: enzyme activity
Action: inhibitor
Concentration: 0.5 µM
Reference: control
Quantity: remaining activity
Target sequence (Q9NR20 1-520): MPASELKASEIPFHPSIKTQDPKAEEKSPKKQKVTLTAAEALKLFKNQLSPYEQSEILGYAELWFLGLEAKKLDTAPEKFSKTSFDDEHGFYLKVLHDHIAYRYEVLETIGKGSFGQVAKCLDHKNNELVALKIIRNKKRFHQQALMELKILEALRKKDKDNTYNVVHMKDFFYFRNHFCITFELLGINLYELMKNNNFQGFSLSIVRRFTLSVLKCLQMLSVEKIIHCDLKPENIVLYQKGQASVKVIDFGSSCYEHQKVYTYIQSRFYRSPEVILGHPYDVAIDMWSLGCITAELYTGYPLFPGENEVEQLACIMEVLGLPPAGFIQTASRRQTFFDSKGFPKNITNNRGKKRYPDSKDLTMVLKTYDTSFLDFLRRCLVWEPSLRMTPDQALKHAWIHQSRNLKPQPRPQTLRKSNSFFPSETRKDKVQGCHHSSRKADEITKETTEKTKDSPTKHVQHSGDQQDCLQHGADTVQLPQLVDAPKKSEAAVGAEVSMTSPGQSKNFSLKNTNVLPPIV
O=C(Nc1cccc(Nc2cc(Nc3cccc(C(F)(F)F)c3)ncn2)c1)C1CC1: 98%
CN(C)c1ccc(C=C2C(=O)Nc3ccccc32)cc1: 94.8%
OCC(O)CCON=C1C(c2c(O)[nH]c3ccccc23)=Nc2ccccc21 (stereo not drawn): 100%
COc1ccc(CNC(=O)Nc2ncc([N+](=O)[O-])s2)cc1: 97.7%
COc1cc2nccc(Oc3ccc(NC(=S)NC(=O)c4ccccc4C)cc3)c2cc1OC: 92.7%
O=S(=O)(c1cccc2cnccc12)N1CCCNCC1: 97.9%
O=C1NC(=O)C(c2cn(CCCO)c3ncccc23)=C1c1cnccn1: 98.4%
C#Cc1cccc(Nc2ncnc3cc(OCCOC)c(OCCOC)cc23)c1: 100%
Cc1ccc(NC(=O)c2ccc(CN3CCN(C)CC3)cc2)cc1Nc1nc(-c2cccnc2)cs1: 100%
CNC(=O)c1cc(Oc2ccc(NC(=O)Nc3ccc(Cl)c(C(F)(F)F)c3)cc2)ccn1: 105%
Cc1ccc(Nc2nccc(N(C)c3ccc4c(C)n(C)nc4c3)n2)cc1S(N)(=O)=O: 106%
COc1ccc(C(=O)Nc2sc3c(c2C(N)=O)CCCC3)cc1OC: 98.5%
CO[C@H]1C[C@@H]2CC[C@@H](C)[C@@](O)(O2)C(=O)C(=O)N2CCCC[C@H]2C(=O)O[C@H]([C@H](C)C[C@@H]2CC[C@@H](O)[C@H](OC)C2)CC(=O)[C@H](C)/C=C(\C)[C@@H](O)[C@@H](OC)C(=O)[C@H](C)C[C@H](C)/C=C/C=C/C=C/1C: 99.8%
Cn1c2ccccc2c2c3c(c4c5ccccc5n(CCC#N)c4c21)CNC3=O: 95.7%
COc1ccc(OC)c2c(=S)c3ccccc3[nH]c12: 107%
Nc1[nH]nc2nc3ccccc3nc12: 89.2%

A few entries again (sample 4):
Cn1c2ccccc2c2c3c(c4c5ccccc5n(CCC#N)c4c21)CNC3=O: 95.7%
CO[C@H]1C[C@@H]2CC[C@@H](C)[C@@](O)(O2)C(=O)C(=O)N2CCCC[C@H]2C(=O)O[C@H]([C@H](C)C[C@@H]2CC[C@@H](O)[C@H](OC)C2)CC(=O)[C@H](C)/C=C(\C)[C@@H](O)[C@@H](OC)C(=O)[C@H](C)C[C@H](C)/C=C/C=C/C=C/1C: 99.8%
COc1cc2nccc(Oc3ccc(NC(=S)NC(=O)c4ccccc4C)cc3)c2cc1OC: 92.7%
